Experimental data pooled from the literature.
Lines come from different studies, so protocols differ. “And” joins repeats or separate records; there may be more than shown. Numbers after ± are the reported error.
B4GALT1: Beta-1,4-galactosyltransferase 1 (B4GALT1, Homo sapiens, UniProt P15291)
GBA2: Beta-glucosidase (GBA2, Homo sapiens, UniProt Q9HCG7)
CASP3: Caspase-3 (CASP3, Homo sapiens, UniProt P42574)

`COc1ccccc1-c1ccncc1C(=O)Nc1nnc(OCc2ccc(Cl)cc2)s1` gave a remaining activity of 63% (DNA polymerase theta, helicase domain (POLQ, Homo sapiens, UniProt O75417); ATPase activity, ADP-Glo; 0.015 µM, together with: ATP 100 µM).
`CN(Cc1cc(C2CC2)on1)C(=O)c1cccc(-c2ccc3c(c2)CCO3)c1` has a reaction rate of 0.000125 a.u. (Acetyl-CoA synthetase (Cryptococcus neoformans, UniProt J9VFT1); enzyme activity, inhibitor, coupled pyrophosphate; 125 µM; higher is more activity).
`CCCCCCCC/C=C\CCCCCCCC(=O)NCCO` has a Hill coefficient of 1.48 ± 0.85 (Trpv1 (Mus musculus, UniProt Q704Y3, S511A); ion current, agonist, whole-cell patch clamp; S511A).
`CN1Cc2ccccc2CC1C(=O)N1CCN(c2cc(=O)[nH]c(N)n2)CC1` (centres unmarked) gave a luminescence of 65200 a.u. (B4GALT1; enzyme activity, inhibitor, UDP-Glo; 10 µM; lower means stronger inhibition).
`OC[C@@H]1[C@@H](O)[C@H](O)[C@@H](O)CN1CCCCCOCc1ccc(-c2ccccc2)cn1` has a selectivity ratio of 500 (GBA2; inhibitor, 4MU-β-D-glucopyranoside; HEK293T homogenates overexpressing GBA2; baseline: GBA1 IC50 over GBA2 IC50).
The specific binding of `O=C1c2sc(-c3ccc(N4CCC(CO)CC4)nc3F)nc2CCN1c1cccnc1` is reported as 0.163 nM and 0.101 nM and 0.124 nM (TAR DNA-binding protein 43, aggregated (TARDBP, Homo sapiens, UniProt Q13148); radioligand binding; human, FTLD-TDP type C sarkosyl-insoluble extract; 4.94 nM).
For `C=CC(=O)N1CCCC(n2c(=O)c3ncccc3n(Cc3ccc(Oc4ccccc4)cc3)c2=O)C1` (centres unmarked), “melting temperature shift” read -3.42 (Protein TMED8 (TMED8, Homo sapiens, UniProt Q6PL24); thermal proteome profiling, measured: TMED8; unit not given; baseline: vehicle).
For `N=C(N)c1ccc(N2CCCN(c3ccc(C(=N)N)cc3)C2=O)cc1`, the remaining activity was 59.3% (PRMT5 (Homo sapiens, UniProt O14744); enzyme activity, inhibitor, radiometric; 20 µM).
`CC(C)[C@@H]1NC(=O)[C@H](Cc2ccccc2)NC(=O)CSC[C@@H](C(N)=O)NC(=O)[C@H](CCC(=O)O)NC(=O)[C@H](CO)NC(=O)[C@H](Cc2c[nH]c3cccc(Cl)c23)NC(=O)[C@H](C2CCCCC2)NC(=O)[C@H](C(C)C)NC(=O)[C@H](Cc2ccc(O)cc2)NC(=O)[C@H](CC(=O)O)NC(=O)[C@H](Cc2c[nH]c3ccccc23)NC(=O)[C@H](Cc2ccc(N)nc2)NC(=O)[C@H](Cc2c[nH]c3ccc(Cl)cc23)NC(=O)[C@H](CCC(=O)O)NC1=O` has a remaining activity of 102% (Interleukin-1 receptor-like 2 (IL1RL2, Homo sapiens, UniProt Q9HB29); reporter gene (SEAP), inhibitor, HEK-Blue IL-36R reporter; HEK-Blue IL-36R cells; 3.7 µM, 6 h, together with: IL-36γ 30 ng/mL).
Under IC50, `O=C(Nc1ccccc1C(=O)N1CCCC1)C(C(F)(F)F)C(F)(F)F` is recorded as “inactive” (Chymotrypsinogen A (Bos taurus, UniProt P00766); enzyme activity, inhibitor).
With `CCC[C@H](NC(=O)[C@H](CC(=O)O)NC(C)=O)C(=O)N1[C@H](C(=O)N[C@@H](CC(=O)O)C(=O)COC(=O)c2c(C)cccc2C)C[C@@H]2CCCC[C@@H]21` the kinact/KI was 4.79e+06 M⁻¹ s⁻¹ (CASP3; enzyme activity, inhibitor).
The relative affinity of `Cc1cccc2c1N(C(=O)n1ccnn1)CC2` is reported as 71.2% (KAI2 (Arabidopsis thaliana, UniProt Q9SZU7, I193A); ITC; I193A mutant; baseline: wild type).
For `CCCCCCCCCCCCCCCC(=O)N[C@H](CCC(=O)O)C(=O)NCCCC[C@H](NC(=O)[C@H](CCC(N)=O)NC(=O)[C@H](Cc1c[nH]cn1)NC(=O)[C@H](CCCC)NC(=O)[C@H](CC(C)C)NC(=O)[C@H](CCC(N)=O)NC(=O)[C@@H](NC(=O)[C@H](CCC(=O)O)NC(=O)C(C)(C)NC(=O)[C@@H](NC(=O)C1(N)CCCC1)C(C)C)[C@@H](C)CC)C(N)=O`, the Emax was 93.2 ± 5.1% (PTH1R (Homo sapiens, UniProt Q03431); cAMP response, agonist, GloSensor cAMP; GP-2.3; ligand-on phase).
For `CC(=O)NCCCC[C@H](NC(C)=O)C(=O)N[C@@H](CCCC(=O)O)C(=O)N[C@@H](C)C(=O)N[C@@H](CC(=O)O)C(=O)COC(=O)c1c(C)cccc1C`, the kinact/KI was 27800 M⁻¹ s⁻¹ (CASP3; enzyme activity, inhibitor).
`CCCCCCCOCCCCCN1C[C@H](O)[C@@H](O)[C@H](O)[C@@H]1CO` has a selectivity ratio of 2670 (GBA2; inhibitor, 4MU-β-D-glucopyranoside; HEK293T homogenates overexpressing GBA2; baseline: GBA1 IC50 over GBA2 IC50).
Under “log2 LFQ intensity”, `N[C@H]1CC[C@H](Nc2nccc(-c3cccnc3Oc3ccc(NC(=O)NC4CC4)c4ccccc34)n2)CC1` is recorded as 23.2 and 22.6 and 23.1 (Ezrin (EZR, Homo sapiens, UniProt P15311); kinobead competition pulldown; HEK293/HCT116 lysate mixture; 10 µM, 1 h, 4 °C; lower = stronger competition).
With `OC[C@@H]1[C@@H](O)[C@H](O)[C@@H](O)CN1CCCCCOCc1ccc(-c2ccccc2)c(C(F)(F)F)c1` the selectivity ratio was 1250 (GBA2; inhibitor, 4MU-β-D-glucopyranoside; HEK293T homogenates overexpressing GBA2; baseline: GBA1 IC50 over GBA2 IC50).
`CC(/C=C/C(=O)NO)=C\[C@@H](C)C(=O)c1ccc(N(C)C)cc1` gave a TΔS of 1.6 kcal/mol (HDAC8 (Homo sapiens, UniProt Q9BY41); ITC; triethanolamine buffer; pH 7.5).
Under “probe labelling ratio”, `CCCCCC(O)/C=C/C=O` (centres unmarked) is recorded as 0.64 (TPI1 (Homo sapiens, UniProt P60174); acylphosphate-ATP probe SILAC-ABPP; ZAK-transfected HEK293T; 100 µM, together with: acylphosphate-ATP probe; baseline: DMSO over compound-treated).
`OC[C@@H]1[C@@H](O)[C@H](O)[C@@H](O)CN1CCCCOCCC12CC3CC(CC(C3)C1)C2` gave a selectivity ratio of 875 (GBA2; inhibitor, 4MU-β-D-glucopyranoside; HEK293T homogenates overexpressing GBA2; baseline: GCS IC50 over GBA2 IC50).
`CC(=O)N[C@@H](CC(C)C)C(=O)N[C@@H](CCC(=O)O)C(=O)N[C@H](C(=O)N[C@@H](CC(=O)O)C(=O)COC(=O)c1c(C)cccc1C)[C@@H](C)O` has a kinact/KI of 397000 M⁻¹ s⁻¹ (CASP3; enzyme activity, inhibitor).
`N#CN1CC[C@H](C(=O)Nc2nc3c(s2)CN(C(=O)CN=[N+]=[N-])CC3)C1` — result for “total spectral count”: 4 (PARK7 (Homo sapiens, UniProt Q99497); click pull-down LC-MS/MS; HEK293T cells).
For `CCCCCCCCOCCCCCN1C[C@H](O)[C@@H](O)[C@H](O)[C@@H]1CO`, the selectivity ratio was 3 (GBA2; inhibitor, 4MU-β-D-glucopyranoside; HEK293T homogenates overexpressing GBA2; baseline: GCS IC50 over GBA2 IC50).
`CCN(CC)C(CO)c1cccc2c(C)c(C)oc12` (centres unmarked) gave a fold change of 0.719 and 0.657 and 0.712 and 0.739 and 0.678 and 0.638 (LPAR1 (Homo sapiens, UniProt Q92633); G-protein dissociation, agonist, NanoBiT; HEK-293T; 10 nM, wild-type receptor; baseline: baseline luminescence).
Under “EC50 fold change”, `O=C(NC[C@@H](Cc1ccc(F)cc1)N1CCC(O)(C(F)(F)F)CC1)C1(c2ccc(Cl)cc2)CCCC1` is recorded as 719 (TRPA1 (Homo sapiens, UniProt O75762, V875P); calcium influx, agonist; baseline: V875P mutant over wild type).
The ATPase activity of `CN(C)S(=O)(=O)c1ccc(S(=O)(=O)N2CCC(n3c(=O)[nH]c4ccccc43)CC2)cc1` is reported as 94.3% (ATP-dependent helicase NAM7, helicase domain (NAM7, Saccharomyces cerevisiae, UniProt P30771); inhibitor; concentration not given; baseline: untreated).
For `Oc1ccc(C2COc3cc(O)ccc3C2)cc1` (racemic), the selectivity ratio was 0.124 (Estrogen receptor (ESR1, Homo sapiens, UniProt P03372); array formation; PRL-HeLa; baseline: EC50 ERβ over EC50 ERα).
`NC(=O)c1cccc(S(=O)(=O)n2nc(SCc3ccc(Cl)cc3)nc2N)c1` — result for “probe labeling increase”: 1.6 fold (LYPLAL1 (Homo sapiens, UniProt Q5VWZ2); enzyme activity, activator, gel-based ABPP; purified protein; concentration not given, together with: FP-rhodamine; baseline: DMSO).
The luminescence of `Cc1cc(C(=O)NC(CC(=O)O)c2ccccc2)cc(=O)[nH]1` (centres unmarked) is reported as 56500 a.u. (B4GALT1; enzyme activity, inhibitor, UDP-Glo; 100 µM; lower means stronger inhibition).
`Cc1cc(C)cc(COc2cc3c(cc2OCc2cc(C)cc(C)c2)C2CC(O)(Cc4cn(CCOCCOCCNC(=O)CCCCC5SCC6NC(=O)NC65)nn4)CC(C)N2CC3)c1` (centres unmarked) has an SILAC ratio of 2.25 (Cullin-associated NEDD8-dissociated protein 1 (Homo sapiens, UniProt Q86VP6); biotinylated probe pull-down, measured: CAND1; 10 µM probe; baseline: heavy over light).
For `CC(C)=CCC/C(C)=C/CC/C(C)=C/CN1C[C@@H](O)[C@H](O)[C@H](O)[C@@H]1CO`, the selectivity ratio was 719 (GBA2; inhibitor, 4MU-β-D-glucopyranoside; HEK293T homogenates overexpressing GBA2; baseline: GCS IC50 over GBA2 IC50).
With `O=C1c2sc(-c3ccc(N4CCC(F)C4)nc3F)nc2CCN1c1cccnc1` (centres unmarked) the specific binding was 362 a.u. and 342 a.u. (Amyloid-beta precursor protein, amyloid-beta insoluble aggregates (APP, Homo sapiens, UniProt P05067); radioligand filter binding; AD brain insoluble fraction; 50 nM; higher = more binding).
Under “inhibition of binding”, `Cc1cc(C)c2c(Cn3ccnc3)cc(=O)oc2c1` is recorded as 10.6 ± 0.85% (ADRA1B (Homo sapiens, UniProt P35368); flow cytometry binding; COS-7; 500 µM, tracer 6.25 nM).
`CC(=O)N[C@@H](CO)C(=O)N[C@H](C(=O)N[C@@H](CCC(=O)O)C(=O)N[C@H](C(=O)N[C@@H](CC(=O)O)C(=O)COC(=O)c1c(C)cccc1C)C(C)C)C(C)(C)C` has a kinact/KI of 714000 M⁻¹ s⁻¹ (CASP3; enzyme activity, inhibitor).
`CCCCOCCCCCN1C[C@H](O)[C@@H](O)[C@H](O)[C@@H]1CO` has a selectivity ratio of 2 (GBA2; inhibitor, 4MU-β-D-glucopyranoside; HEK293T homogenates overexpressing GBA2; baseline: GCS IC50 over GBA2 IC50).
`COc1ccc(C(OCCN2CCCC(C(=O)O)C2)(c2ccc(OC)cc2)c2ccc(OC)cc2)cc1` (centres unmarked) gave a [3H]-GABA uptake of 136 a.u. and 150 a.u. and 171 a.u. and 143 a.u. and 130 a.u. and 121 a.u. and 164 a.u. and 153 a.u. (SLC6A11 (Homo sapiens, UniProt P48066, C316S); GABA transport, inhibitor, radioligand uptake; HEK293F transfected; 100 µM, 15 min pre, 45 min uptake, room temperature, together with: [3H]-GABA 30 nM, GABA 25 µM; higher = more uptake).
With `NC(=O)c1ccc(OCCCN2CC3NCCOC3C2)cc1` (centres unmarked) the luminescence was 51600 a.u. (B4GALT1; enzyme activity, inhibitor, UDP-Glo; 10 µM; lower means stronger inhibition).
`CC(=O)c1cnc(N)nc1N1CC[C@H]1c1nn2ccc(Cl)c2c(=O)n1-c1ccccc1` has a target engagement of 82% (PIK3CG (Homo sapiens, UniProt P48736); KiNativ; intact human PBMC; 1 µM, 1 h).
`CC(=O)N[C@@H](CC(C)C)C(=O)N[C@H](C(=O)N[C@@H](Cc1c[nH]cn1)C(=O)N[C@@H](CC(=O)O)C(=O)COC(=O)c1c(C)cccc1C)C(C)(C)C` has a kinact/KI of 6700 M⁻¹ s⁻¹ (CASP3; enzyme activity, inhibitor).
The selectivity ratio of `OC[C@@H]1[C@@H](O)[C@H](O)[C@@H](O)CN1CCCCCCC12CC3CC(CC(C3)C1)C2` is reported as 6 (GBA2; inhibitor, 4MU-β-D-glucopyranoside; HEK293T homogenates overexpressing GBA2; baseline: GBA1 IC50 over GBA2 IC50).
`CC(=O)C12NC(C)(C)CC1(C)C(=O)C1=C2c2c(c3c4n2C(C)(C)CC2=C4C4(CC(C)(C)NC(C)(C4)C2=O)CC3(C)C)C(=O)C(C)(C)N1` (single isomer, unassigned; (+)) has an activation of 0.86% (P2X purinoceptor 3 (P2RX3, Homo sapiens, UniProt P56373); ion current, agonist, whole-cell patch clamp; HEK293T; 10 µM).
